{"data": "Measured values pooled from the literature", "note": "Lines come from different studies, so protocols differ. ± gives the spread as reported."}
{"SMILES": "C=CC(=O)N(C)CCOc1c(N)ncnc1-c1cc(F)cc(NC(=O)c2ccc(C3CC3)cc2F)c1C", "system": "human", "conditions": "oral, 20 mg, day 7, arithmetic mean, added: ritonavir", "measurement": "AUC(0-inf) per dose", "result": "21.4 ng·h/mL/mg"}
{"SMILES": "C=CC(=O)NC1CCN(c2ncc3ncnc(Nc4ccc(Oc5ccc6c(c5)ncn6C)c(C)c4)c3n2)CC1", "system": "human, male", "conditions": "oral, 240 mg, fasted, spray-dried dispersion, geometric mean", "measurement": "AUC(0-inf)", "result": "47.6 µM·h"}
{"SMILES": "Cc1ccc(C)c(OCCCC(C)(C)C(=O)O)c1", "system": "human, plasma", "conditions": "oral, dose not given, added: lopinavir-ritonavir two weeks", "scale": "reference: without lopinavir-ritonavir", "measurement": "AUC(0-inf) decrease", "result": "41%"}
{"SMILES": "CC(C)[C@@H]1CC[C@@H](C)C[C@H]1OC(=O)O[C@@H](C)OC(=O)[C@H]1[C@@H]2C[C@H](F)[C@@](N)(C(=O)O)[C@@H]21", "system": "human, plasma", "conditions": "oral, 10 mg, single dose", "scale": "reference: fed over fasted", "measurement": "AUC(0-inf) ratio", "result": 0.917}
{"SMILES": "CCCS(=O)(=O)N[C@H]1C[C@@H](N(C)c2ncnc3[nH]ccc23)C1", "system": "healthy human, plasma", "conditions": "oral, 100 mg", "measurement": "AUC(0-inf) geometric mean", "result": "1550 ng·h/mL"}
{"SMILES": "CC(C)=CCC/C(C)=C/CC/C(C)=C/CC[C@@](C)(O)CCC1=C(C)C(=O)C(C)=C(C)C1=O", "system": "healthy human, plasma", "conditions": "oral, 400 mg, added: itraconazole 200 mg", "measurement": "AUC(0-inf) geometric mean", "result": "11100 ng·h/mL"}
{"SMILES": "CCOc1cc(CC(=O)N[C@@H](CC(C)C)c2ccccc2N2CCCCC2)ccc1C(=O)O", "system": "human", "conditions": "oral, dose not given, added: omaveloxolone", "scale": "reference: substrate alone", "measurement": "AUC(0-inf) decrease", "result": "35%"}
{"SMILES": "NC[C@@]1(CC(=O)O)[C@@H]2CC[C@H]3C[C@@H]2[C@@H]1C3", "system": "human, severe renal impairment, plasma", "conditions": "dose not given", "scale": "reference: normal renal function", "measurement": "AUC(0-inf) increase", "result": "273%"}
{"SMILES": "CN(CC#N)C(=O)C[C@H](Nc1nc2ccccc2[nH]1)c1cccc(C(F)(F)F)c1", "system": "human", "conditions": "intravenous infusion, 6 mg/kg, 1 mg/mL formulation", "measurement": "AUC(0-inf)", "result": "25700 ± 5080 ng·h/mL"}
{"SMILES": "Cn1cncc1[C@@](N)(c1ccc(Cl)cc1)c1ccc2c(c1)c(-c1cccc(Cl)c1)cc(=O)n2C", "system": "human, with dose-limiting toxicity, plasma", "conditions": "oral, dose not given, median", "measurement": "AUC(0-inf)", "result": "5310 ng·h/mL"}
{"SMILES": "C=CC(=O)NC1CCN(c2ncc3ncnc(Nc4ccc(Oc5ccc6c(c5)ncn6C)c(C)c4)c3n2)CC1", "system": "healthy male humans, plasma", "conditions": "oral, dose not given, added: carbamazepine", "scale": "reference: with over without carbamazepine", "measurement": "AUC(0-inf) ratio", "result": "37.8%"}
{"SMILES": "C=CC(=O)N(C)CCOc1c(N)ncnc1-c1cc(F)cc(NC(=O)c2ccc(C3CC3)cc2F)c1C", "system": "human, whole blood", "conditions": "oral, 200 mg, single ascending dose", "measurement": "AUC(0-inf)", "result": "693 ng·h/mL"}
{"SMILES": "N[C@@H]1c2cccnc2[C@H](OC(=O)N2CCC(n3c(=O)[nH]c4ncccc43)CC2)CC[C@H]1c1cccc(F)c1F", "system": "human, plasma", "conditions": "oral, 75 mg single dose, alone, geometric mean, rifampin DDI study", "measurement": "AUC(0-inf)", "result": "4960 ng·h/mL"}
{"SMILES": "CCCn1cc(C)c2c(=O)[nH]c(-c3cc(S(=O)(=O)N4CCN(CC)CC4)ccc3OCC)nc21", "system": "human, plasma", "conditions": "dose not given, added: alcohol", "scale": "reference: drug alone", "measurement": "AUC(0-inf) increase", "result": "42.9%"}
{"SMILES": "C[C@H](Oc1ccc(Br)cc1-c1ccon1)C(=O)O", "system": "human, plasma", "conditions": "800 mg single dose", "scale": "reference: female over male", "measurement": "AUC(0-inf) ratio", "result": 1.33}
{"SMILES": "CC1(C)CC[C@]2(NC(=O)C(C)(F)F)CC[C@]3(C)[C@H](C(=O)C=C4[C@@]5(C)C=C(C#N)C(=O)C(C)(C)[C@@H]5CC[C@]43C)[C@@H]2C1", "system": "human, plasma", "conditions": "oral, dose not given, added: itraconazole", "scale": "reference: without itraconazole", "measurement": "AUC(0-inf) fold increase", "result": "~4 fold"}
{"SMILES": "Cc1cc(Nc2ncnc3ccc(NC4=NC(C)(CO)CO4)cc23)ccc1Oc1ccn2ncnc2c1 (stereo not shown)", "system": "human, plasma", "conditions": "tucatinib, day 10, added: rifampin once daily", "measurement": "AUC(0-inf) (arithmetic mean)", "result": "367 ng·h/mL"}
{"SMILES": "N[C@]1(C(=O)O)[C@H]2[C@@H](C[C@@H]1F)[C@@H]2C(=O)O", "system": "human, both sexes, plasma", "conditions": "oral, 10 mg, single dose", "scale": "reference: fed over fasted", "measurement": "AUC(0-inf) ratio", "result": 0.747}
{"SMILES": "N[C@@H](CC(=O)N1CCn2c(nnc2C(F)(F)F)C1)Cc1cc(F)c(F)cc1F", "system": "human, male, plasma", "conditions": "oral, 100 mg single dose", "measurement": "AUC(0-inf) divided by body mass index", "result": "147 ± 37 ng·h/mL"}
{"note": "For quick reference, copied from above:"}
{"SMILES": "NC[C@@]1(CC(=O)O)[C@@H]2CC[C@H]3C[C@@H]2[C@@H]1C3", "system": "human, severe renal impairment, plasma", "conditions": "dose not given", "scale": "reference: normal renal function", "measurement": "AUC(0-inf) increase", "result": "273%"}
{"SMILES": "CN(CC#N)C(=O)C[C@H](Nc1nc2ccccc2[nH]1)c1cccc(C(F)(F)F)c1", "system": "human", "conditions": "intravenous infusion, 6 mg/kg, 1 mg/mL formulation", "measurement": "AUC(0-inf)", "result": "25700 ± 5080 ng·h/mL"}
